Experimental data gathered from unrelated publications.
Numbered parts are unrelated; each lists some results of a single study. “And” joins repeats or separate records; there may be more than shown. Substitutions count along the parent as printed.
Sequence of UniProt Q5XXA6 (whole entry, unmodified, looked up): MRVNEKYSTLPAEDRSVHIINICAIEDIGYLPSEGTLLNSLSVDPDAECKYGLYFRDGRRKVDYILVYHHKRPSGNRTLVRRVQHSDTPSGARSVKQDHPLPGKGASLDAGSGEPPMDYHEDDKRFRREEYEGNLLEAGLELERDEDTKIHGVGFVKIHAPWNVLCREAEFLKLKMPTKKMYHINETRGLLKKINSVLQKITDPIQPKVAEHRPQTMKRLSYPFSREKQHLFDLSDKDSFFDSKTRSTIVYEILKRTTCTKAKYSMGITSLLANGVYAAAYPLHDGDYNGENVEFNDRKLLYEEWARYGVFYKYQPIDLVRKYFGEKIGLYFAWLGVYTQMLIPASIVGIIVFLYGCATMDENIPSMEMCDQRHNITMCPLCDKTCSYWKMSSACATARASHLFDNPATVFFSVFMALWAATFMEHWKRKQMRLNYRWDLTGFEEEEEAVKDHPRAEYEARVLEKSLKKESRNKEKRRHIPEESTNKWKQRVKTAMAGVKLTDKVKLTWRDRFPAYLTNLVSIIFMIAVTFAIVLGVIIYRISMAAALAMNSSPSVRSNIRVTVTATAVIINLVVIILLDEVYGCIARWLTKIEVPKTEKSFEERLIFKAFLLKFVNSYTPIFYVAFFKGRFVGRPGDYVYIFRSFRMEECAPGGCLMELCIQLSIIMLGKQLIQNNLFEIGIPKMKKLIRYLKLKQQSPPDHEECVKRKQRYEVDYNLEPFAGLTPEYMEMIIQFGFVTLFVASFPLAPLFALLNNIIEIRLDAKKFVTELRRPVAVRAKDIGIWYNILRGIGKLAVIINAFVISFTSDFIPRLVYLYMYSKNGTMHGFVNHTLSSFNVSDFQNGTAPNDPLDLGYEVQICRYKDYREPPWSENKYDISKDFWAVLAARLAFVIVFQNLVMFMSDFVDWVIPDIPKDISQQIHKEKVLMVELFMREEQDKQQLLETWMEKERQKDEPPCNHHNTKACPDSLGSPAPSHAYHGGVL
Sequence of UniProt P33981 (whole entry, looked up): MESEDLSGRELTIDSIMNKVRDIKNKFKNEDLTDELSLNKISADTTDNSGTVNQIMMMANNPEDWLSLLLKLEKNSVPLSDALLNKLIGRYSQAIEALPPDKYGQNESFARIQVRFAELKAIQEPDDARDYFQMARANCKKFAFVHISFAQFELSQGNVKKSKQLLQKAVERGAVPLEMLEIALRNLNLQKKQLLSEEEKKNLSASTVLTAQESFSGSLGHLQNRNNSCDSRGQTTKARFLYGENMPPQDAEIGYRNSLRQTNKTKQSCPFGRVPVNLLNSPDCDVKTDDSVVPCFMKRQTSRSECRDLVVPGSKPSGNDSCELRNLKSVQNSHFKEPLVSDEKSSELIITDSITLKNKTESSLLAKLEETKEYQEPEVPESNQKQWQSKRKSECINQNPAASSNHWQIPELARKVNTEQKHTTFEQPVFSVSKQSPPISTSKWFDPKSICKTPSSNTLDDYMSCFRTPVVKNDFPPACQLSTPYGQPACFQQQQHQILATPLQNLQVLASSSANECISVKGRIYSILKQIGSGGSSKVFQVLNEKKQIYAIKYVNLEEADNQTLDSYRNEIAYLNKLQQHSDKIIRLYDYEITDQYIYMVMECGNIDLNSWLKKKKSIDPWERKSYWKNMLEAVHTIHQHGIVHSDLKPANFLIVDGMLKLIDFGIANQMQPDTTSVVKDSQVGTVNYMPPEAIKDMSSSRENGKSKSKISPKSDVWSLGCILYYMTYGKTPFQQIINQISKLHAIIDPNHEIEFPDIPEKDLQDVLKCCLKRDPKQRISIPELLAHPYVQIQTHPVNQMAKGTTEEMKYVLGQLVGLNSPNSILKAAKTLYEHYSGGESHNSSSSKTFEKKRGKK
Sequence of UniProt Q14004 (whole entry, looked up): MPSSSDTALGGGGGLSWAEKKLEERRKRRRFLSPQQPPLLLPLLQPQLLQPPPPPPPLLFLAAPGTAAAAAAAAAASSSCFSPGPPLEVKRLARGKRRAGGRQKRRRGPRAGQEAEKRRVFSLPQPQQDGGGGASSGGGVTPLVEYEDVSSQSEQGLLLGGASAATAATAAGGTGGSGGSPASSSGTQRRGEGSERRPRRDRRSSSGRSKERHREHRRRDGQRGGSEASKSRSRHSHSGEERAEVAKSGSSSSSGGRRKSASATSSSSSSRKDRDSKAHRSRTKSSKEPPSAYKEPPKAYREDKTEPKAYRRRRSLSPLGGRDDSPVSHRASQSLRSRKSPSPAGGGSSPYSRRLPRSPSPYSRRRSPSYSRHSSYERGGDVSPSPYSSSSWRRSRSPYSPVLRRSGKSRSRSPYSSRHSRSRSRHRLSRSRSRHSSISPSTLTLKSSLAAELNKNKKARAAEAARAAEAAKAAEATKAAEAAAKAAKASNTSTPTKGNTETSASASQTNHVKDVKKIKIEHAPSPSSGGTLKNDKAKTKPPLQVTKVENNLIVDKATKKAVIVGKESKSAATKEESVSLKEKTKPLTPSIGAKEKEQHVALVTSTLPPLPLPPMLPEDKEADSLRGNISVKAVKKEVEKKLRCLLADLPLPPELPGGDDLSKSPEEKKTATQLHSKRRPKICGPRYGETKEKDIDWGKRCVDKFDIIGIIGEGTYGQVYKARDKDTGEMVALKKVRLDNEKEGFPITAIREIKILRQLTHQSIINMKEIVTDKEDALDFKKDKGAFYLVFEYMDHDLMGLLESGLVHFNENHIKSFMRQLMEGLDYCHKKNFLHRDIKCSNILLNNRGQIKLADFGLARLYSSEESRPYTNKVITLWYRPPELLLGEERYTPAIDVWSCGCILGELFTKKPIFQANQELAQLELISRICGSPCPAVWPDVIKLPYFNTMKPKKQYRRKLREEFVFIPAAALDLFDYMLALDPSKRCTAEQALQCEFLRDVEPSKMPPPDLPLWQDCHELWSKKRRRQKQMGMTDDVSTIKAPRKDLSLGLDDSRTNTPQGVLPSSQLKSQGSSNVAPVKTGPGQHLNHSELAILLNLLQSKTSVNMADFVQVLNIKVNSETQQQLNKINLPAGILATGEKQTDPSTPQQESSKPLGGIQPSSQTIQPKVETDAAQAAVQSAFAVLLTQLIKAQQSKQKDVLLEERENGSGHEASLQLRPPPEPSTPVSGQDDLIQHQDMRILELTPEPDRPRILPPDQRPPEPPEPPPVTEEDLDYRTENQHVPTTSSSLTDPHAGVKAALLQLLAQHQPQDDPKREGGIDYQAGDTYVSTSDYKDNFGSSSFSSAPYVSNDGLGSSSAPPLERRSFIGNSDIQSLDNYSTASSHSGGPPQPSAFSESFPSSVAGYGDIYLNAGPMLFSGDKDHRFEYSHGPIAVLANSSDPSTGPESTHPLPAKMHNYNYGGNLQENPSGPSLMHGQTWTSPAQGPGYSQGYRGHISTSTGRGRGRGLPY
Sequence of UniProt P53350 (whole entry, looked up): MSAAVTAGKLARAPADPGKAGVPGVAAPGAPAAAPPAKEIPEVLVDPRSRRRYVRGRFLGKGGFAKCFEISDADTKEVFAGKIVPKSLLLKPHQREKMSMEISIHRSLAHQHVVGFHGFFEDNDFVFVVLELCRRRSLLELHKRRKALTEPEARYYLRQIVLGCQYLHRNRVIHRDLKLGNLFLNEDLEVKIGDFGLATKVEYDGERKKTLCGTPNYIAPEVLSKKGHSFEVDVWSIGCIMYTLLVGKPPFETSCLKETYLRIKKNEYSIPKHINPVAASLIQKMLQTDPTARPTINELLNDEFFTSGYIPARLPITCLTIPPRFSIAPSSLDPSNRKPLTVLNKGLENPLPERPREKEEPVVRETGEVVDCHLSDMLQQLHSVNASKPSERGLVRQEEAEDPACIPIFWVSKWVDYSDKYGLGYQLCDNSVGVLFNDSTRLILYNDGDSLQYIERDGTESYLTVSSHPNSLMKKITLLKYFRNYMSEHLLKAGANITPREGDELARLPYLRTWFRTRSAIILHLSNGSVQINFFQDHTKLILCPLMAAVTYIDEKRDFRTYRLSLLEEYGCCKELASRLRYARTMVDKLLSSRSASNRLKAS
Sequence of UniProt P42681 (whole entry, looked up): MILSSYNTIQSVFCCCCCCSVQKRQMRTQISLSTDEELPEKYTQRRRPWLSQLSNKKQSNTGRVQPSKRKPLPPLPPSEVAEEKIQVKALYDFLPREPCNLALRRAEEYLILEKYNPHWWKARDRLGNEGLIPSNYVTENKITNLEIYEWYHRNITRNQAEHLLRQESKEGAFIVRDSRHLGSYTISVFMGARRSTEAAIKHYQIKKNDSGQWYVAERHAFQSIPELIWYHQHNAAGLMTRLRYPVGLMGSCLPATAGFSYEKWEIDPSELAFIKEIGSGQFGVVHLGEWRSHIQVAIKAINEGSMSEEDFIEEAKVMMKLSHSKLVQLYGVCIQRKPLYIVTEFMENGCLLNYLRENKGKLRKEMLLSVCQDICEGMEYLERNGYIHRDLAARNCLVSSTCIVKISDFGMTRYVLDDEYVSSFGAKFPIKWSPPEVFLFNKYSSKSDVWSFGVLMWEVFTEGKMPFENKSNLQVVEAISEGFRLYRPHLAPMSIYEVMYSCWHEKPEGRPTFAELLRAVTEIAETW
Sequence of UniProt Q9HBH9 (whole entry, looked up): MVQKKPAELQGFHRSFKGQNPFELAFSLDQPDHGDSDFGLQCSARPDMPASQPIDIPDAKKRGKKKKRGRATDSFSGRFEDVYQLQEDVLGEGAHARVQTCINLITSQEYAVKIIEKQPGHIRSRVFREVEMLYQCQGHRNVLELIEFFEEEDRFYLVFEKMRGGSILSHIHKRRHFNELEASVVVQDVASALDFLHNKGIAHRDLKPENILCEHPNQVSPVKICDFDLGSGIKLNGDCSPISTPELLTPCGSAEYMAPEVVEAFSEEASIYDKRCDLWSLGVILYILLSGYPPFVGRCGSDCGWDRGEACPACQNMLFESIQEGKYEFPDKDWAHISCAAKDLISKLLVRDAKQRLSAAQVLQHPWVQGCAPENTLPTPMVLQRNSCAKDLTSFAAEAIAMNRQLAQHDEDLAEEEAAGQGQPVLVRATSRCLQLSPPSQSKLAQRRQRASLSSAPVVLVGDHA

Block 1
Target: ABI1, truncated, D143A, DHFR fusion (Arabidopsis thaliana)
Method: DHFR PCA, deep sequencing
Matrix: yeast
Setting: methotrexate growth selection, single substitutions
Together with: (+)-ABA 0.032 µM
Baseline: wild-type fitted maximum
Direction: higher = stronger binding
Starting sequence: PYL1, truncated, DHFR fusion (Arabidopsis thaliana); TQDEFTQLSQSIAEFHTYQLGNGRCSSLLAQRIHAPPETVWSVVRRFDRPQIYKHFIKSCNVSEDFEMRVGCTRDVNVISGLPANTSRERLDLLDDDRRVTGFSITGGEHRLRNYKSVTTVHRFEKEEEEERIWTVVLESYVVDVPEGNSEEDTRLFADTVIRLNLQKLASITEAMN; partner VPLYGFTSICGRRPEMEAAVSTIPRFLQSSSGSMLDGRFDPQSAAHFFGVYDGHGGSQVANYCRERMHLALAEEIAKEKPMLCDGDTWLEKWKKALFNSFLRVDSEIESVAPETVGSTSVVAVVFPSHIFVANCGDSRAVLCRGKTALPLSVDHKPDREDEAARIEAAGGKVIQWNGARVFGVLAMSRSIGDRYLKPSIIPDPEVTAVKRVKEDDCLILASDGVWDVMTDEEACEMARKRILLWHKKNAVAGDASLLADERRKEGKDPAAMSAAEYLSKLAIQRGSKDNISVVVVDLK
Substitution	relative binding score
R155A	-2.13%
V62N	-9.32%
M176P	1.55%
N85S	52.5%
I33Y	-1.74%
E147D	30.2%
Q7W	20.8%
D92R	0.234%

Block 2
Target: Fragile X messenger ribonucleoprotein 1, C-terminal low-complexity region (Fmr1, Mus musculus, UniProt P35922)
Method: RNA Bind-n-Seq
Form: RNA
Matrix: in vitro
Tested at: 200 nM
Setting: whole 134-nt RNA, ends assumed
Together with: 150 mM KCl
Baseline: input library
Direction: higher = stronger binding
Shared flanks, not repeated: GGGAGUUCUACAGUCCGACGAUC … UGGAAUUCUCGGGUGUCAAGG
Oligonucleotide	log2 enrichment
UAACUUUAGAGGAGGAUCUGAUGGAUAUGGCAUUGGACGUGGAUUUGGGGAUGGCUAUAAUGGGUAUGGAGGAGGACCUGGAGGUGGCAA	0.406
ACCAUGCAGGUGGGCAUCUUUGGGAAGUGGGGCAAGGGGGGGAUAGGGAGGGGGGUAACACUUUGGGAACAGUUGGUCCCAGGUCGUUUC	0.515
CUCAAGUCCUGUGCUACACAUCGUAUGUACCGAAUCGGGGAAGGAAGGGGAAGGAAAGUAUUAUGUUACGCCGUUCGGAUCUGCACUUCC	0.0455
GUCCUGUGCUACACAUCGUAUGUACCGAAUCGGGGAAAAAGGAAAAAGGGGAAAAAGGAAAGUAUUAUGUUACGCCGUUCGGAUCUGCAC	-0.0968
GCAGGAAGUAAAAACAAAUGGAAAUGCUUCGGAUAGUGGCAGGGGUGGGGGUUGCUAAGGAAAGGGUGGAAAGGGAGUGGGUAAAGAGUU	0.0838
GUCCUGUGCUACACAUCGUAUGUACCGAAUCAAAUUUUUUUAAAUUUAAACCCCCAAAAAAGUAUUAUGUUACGCCGUUCGGAUCUGCAC	0.13
CCUGUGCUACACAUCGUAUGUACCGAAUCGGGAAAAAAAGGGAAAAAAAGGAAAAAAAGGAAAGUAUUAUGUUACGCCGUUCGGAUCUGC	-0.442
ACCAUGCAGGUGGCCAUCUUUGGGAAGUGGGGCAAGGGGGGGAUAGGGAGGGGGGUAACACUUUGGGAACAGGUGGUCCCAGGUCGUUUC	1

Block 3
SMILES: CCC(=N\O)/C(C)=C/c1ccc(F)cc1
Method: competition with immobilised ligand
Tested at: 1 µM
target	effect on	remaining binding
STK11 (Homo sapiens, UniProt Q15831)	cell-free assay	100%
TTK (Homo sapiens, UniProt P33981)	cell-free assay	96%
FLT3 (Homo sapiens, UniProt P36888, D835H)	cell-free assay	100%
MET (Homo sapiens, UniProt P08581, M1250T)	cell-free assay	76%
MET (Homo sapiens, UniProt P08581, Y1235D)	cell-free assay	85%
CDK13 (Homo sapiens, UniProt Q14004)	cell-free assay	95%
DMPK (Homo sapiens, UniProt Q09013)	cell-free assay	88%
MYLK2 (Homo sapiens, UniProt Q9H1R3)	cell-free assay	81%
MKNK2 (Homo sapiens, UniProt Q9HBH9)	cell-free assay	100%
ERN1 (Homo sapiens, UniProt O75460)	cell-free assay	77%
MAP4K2 (Homo sapiens, UniProt Q12851)	cell-free assay	97%
PIK3CA (Homo sapiens, UniProt P42336, Q546K)	cell-free assay	91%
FLT3 (Homo sapiens, UniProt P36888, D835V/ITD)	cell-free assay	76%
MAP3K15 (Homo sapiens, UniProt Q6ZN16)	cell-free assay	100%
TXK (Homo sapiens, UniProt P42681)	binding	81%
PLK1 (Homo sapiens, UniProt P53350)	cell-free assay	93%

Block 4
SMILES: C=CCc1ccc(O)c(-c2ccc(O)c(CC=C)c2)c1
Effect on: chloride current
Mode: inhibitor
Method: whole-cell voltage clamp
target	tested at	setting	together with	IC50
Anoctamin-1 (ANO1, Homo sapiens, UniProt Q5XXA6, del476-501/F628Y)	40 mV holding voltage	–	–	24.7 µM
Anoctamin-1 (ANO1, Homo sapiens, UniProt Q5XXA6, D383A/del476-501)	–	pore pocket mutant D383A at 100 mV	300 nM Ca2+	4.95 µM
Anoctamin-1 (ANO1, Homo sapiens, UniProt Q5XXA6, del476-501/F623A)	–	mutant F597A at 100 mV	300 nM Ca2+	8.81 µM

Further values, each from its own experiment
SMILES	target or system	test	test system	setting	how to read	measurement	result
Cn1c(=O)c2sc3c(c2n(CC(N)=O)c1=O)CCCC3	–	–	mouse, microsomes or S9	2 µM, 0.5 h	–	remaining compound	33.6%
O=C(NCc1ccc(OC(F)(F)F)cc1)C1c2ccccc2C(=O)N1C1CCOCC1 (stereo not drawn)	mouse MPNST tumor cells	high-content immunofluorescence imaging, item: nuclear SOX9	–	10 µM, 12 h, mean of 2 replicates	baseline: DMSO control, higher = more nuclear SOX9	nuclear SOX9 intensity	105 % of DMSO
CCN1C(=O)CCN(S(=O)(=O)c2cn(C)cn2)CC12CCOCC2	–	–	mouse, microsomes or S9	2 µM, 0.5 h	–	remaining compound	92.9%
CC(C)S(=O)(=O)c1ccc2nccc(Nc3ccc4sc(C5CCCC5)nc4c3)c2c1	L929	cell viability, CCK-8	–	without zVAD, 10% FBS	–	CC50	52.8 µM and 53.4 µM
